Values quoted from earlier work as cited in several papers.
Numbers after ± are the reported error.

COc1ccc(Cn2cc3c(c2-c2cc(OC)c(OC)c(OC)c2)CCc2cnoc2-3)cc1OC  potentiation (multidrug-resistant cells; concentration not given, together with: paclitaxel): 80.5%
C[C@@H](Nc1c(-c2c(F)cc(OCCCO)cc2F)c(Cl)nc2ncnn12)C(C)(C)C  acetylated α-tubulin level (HEK293; 10 µM, 4 h, unit not given; relative to: vehicle (DMSO)): 8.92 ± 0.36
CN(CCOCCOCCOCCNc1cccc2c1C(=O)N(C1CCC(=O)NC1=O)C2=O)CC[C@H](CSc1ccccc1)Nc1ccc(S(=O)(=O)NC(=O)c2ccc(N3CCN(CC4=C(c5ccc(Cl)cc5)CCC(C)(C)C4)CC3)cc2)cc1S(=O)(=O)C(F)(F)F (stereo partly drawn)  selectivity ratio (MOLT-4 cells, human platelets; relative to: MOLT-4 over platelets): > 100 fold
CCCCCCCCCCCCCCOc1c(O)cc(C(=O)O[C@@H]2Cc3c(O)cc(O)cc3O[C@@H]2c2cc(O)c(O)c(O)c2)cc1O  phosphorylation (A-431; inhibitor, measured: EGFR; concentration not given, together with: EGF): inhibited
C[C@@H](Nc1c(-c2c(F)cc(C#CCCN)cc2F)c(Cl)nc2ncnn12)C(C)(C)C  acetylated α-tubulin level (HEK293; 10 µM, 4 h, unit not given; relative to: vehicle (DMSO)): 3.66 ± 0.58
Oc1cccc(-c2cccc(O)n2)n1.[Cl-].[Cl-].[Ru+2].c1cnc2c(c1)ccc1cccnc12.c1cnc2c(c1)ccc1cccnc12  phototoxicity index (HeLa; relative to: dark IC50 over light IC50): 3.8
O=C1c2ccccc2-c2c1c1ccc([N+](=O)[O-])cc1c(=O)n2C[C@H](O)CO  mean GI50 (60 human cancer cell lines; cell growth): 0.156 ± 0.061 µM
CCC1=C(C)C2=C(c3ccc([P+](C)(C4CCCCC4)C4CCCCC4)cc3)c3c(C)c(CC)c(C)n3[B-](C)(C)[N+]2=C1C  fluorescence intensity decrease (MCF7; mitochondrial depolarisation response): > 70%
CC[C@H](C)[C@@H]1NC(=O)[C@H](CC(=O)O)NC(=O)[C@H](CC(=O)O)NC(=O)CNC(=O)[C@@H]2CCCN2C(=O)[C@H](CC(=O)O)NC(=O)[C@H](Cc2ccc(O)cc2)NC(=O)[C@H]([C@@H](C)CC)NC(=O)[C@H](CCC(=O)O)NC(=O)[C@H](CCCCN)NC1=O  inhibition (Caco-2 and Jurkat; cell adhesion; 180 µM; relative to: control peptide): ~70%
CC(C)(C)c1cc(C(=O)OC[C@H]2O[C@H](O[C@H]3O[C@H](COC(=O)c4cc(C(C)(C)C)cc(C(C)(C)C)c4O)[C@@H](O)[C@H](O)[C@H]3O)[C@H](O)[C@@H](O)[C@@H]2O)c(O)c(C(C)(C)C)c1  concentration inducing Th17 cytokines (human PBMC; measured: IL-1β, IL-6, IL-23, TNF-α): < 1 µM
Cc1ccc(C(C)C)cc1.O=C(N=P(c1ccccc1)(c1ccccc1)c1ccccc1)c1ccccn1.[Cl-].[Cl][Ru+]  apoptotic cells (Jurkat; measured: phosphatidylserine exposure; concentration not given): 80%
Clc1ccccc1C(c1ccccc1)(c1ccccc1)n1cc[n+]([Pd-2]([Cl])([Cl])[n+]2ccn(C(c3ccccc3)(c3ccccc3)c3ccccc3Cl)c2)c1  antiproliferative activity (human tumour cell line panel; concentration not given): inactive
CCCCCCCCCCCCCCCCOC(=O)C1=C(C)NC(=O)NC1c1cccc(O)c1 (stereo not drawn)  viability reduction (U-138 MG; 10 µM): ~50%
O=C1c2ccccc2-c2c1c1ccccc1c(=O)n2C[C@H](O)[C@@H](O)[C@H](O)[C@H](O)CO  mean growth (60 cancer cell lines; cell growth; 10 µM): 97.2%
CCn1cc(-c2cc(Cn3ccnc3)cc3c2CCN([C@H](c2cc(OC)ccn2)C2CC2)C3=O)c(C(F)(F)F)n1  GI50 (MV4-11; cell proliferation): 0.019 ± 0.0052 µM
O=C1c2ccccc2-c2c1c1ccc([N+](=O)[O-])cc1c(=O)n2C[C@H](O)[C@@H](O)[C@H](O)[C@H](O)CO  mean growth (60 cancer cell lines; cell growth; 10 µM): 58%
O=C1NCCN1CC(O)Cn1c2ccc(F)cc2c2cc(F)ccc21 (stereo not drawn)  EC50 (glioblastoma stem cells; viability): ≥ 10 µM
O=C(/C=C/c1ccc(Cl)cc1)N1CCC2(CC1)CN(Cc1ccc(Cl)c(Cl)c1)C(=O)O2  cell proliferation (B cells overexpressing EBI2; inhibitor; concentration not given): inhibited
CN(C)CCCOc1cc(F)c(-c2c(Cl)nc3ncnn3c2NCC2(C)CC2)c(F)c1  acetylated α-tubulin level (HEK293; 1 µM, 4 h, unit not given; relative to: vehicle (DMSO)): 2.81 ± 0.35
O=C1c2ccccc2-c2c1c1ccccc1c(=O)n2C[C@H](O)[C@H](O)[C@H](O)CO  mean growth (60 cancer cell lines; cell growth; 10 µM): 17.3%
Oc1cccc(-c2cccc(O)n2)n1.[Cl-].[Cl-].[Ru+2].c1cnc2c(c1)c1c(c3cccnc32)OCCO1.c1cnc2c(c1)c1c(c3cccnc32)OCCO1  phototoxicity index (HeLa; relative to: dark IC50 over light IC50): 6
COc1cc2c(cc1C)NC(=O)/C2=C/c1c(Cl)[nH]c2cc(C)c(OC)cc12  GI50 (NCI-60 panel; mean over panel): 2 µM
CC(C)C[C@@H]1NC(=O)[C@H](C(C)C)NC(=O)[C@H](CCCNC(=N)N)NC(=O)[C@@H](N)CSSC[C@@H](C(=O)O)NC(=O)[C@H](CO)NC(=O)CNC(=O)[C@H](CO)NC(=O)[C@H](CCCNC(=N)N)NC1=O  cell binding (RAW264.7; concentration not given): binds
O=C(Nc1cccc(Br)c1)Nc1cc(Oc2ccc3nc(NC(=O)C4CC4)sc3c2)ccc1F  EC50 (HT-29; necroptosis): 0.44 µM
CN(C)CCCOc1cc(F)c(-c2c(Cl)nc3ncnn3c2NCC(C)(C)C)c(F)c1  total α-tubulin level (HEK293; 1 µM, 4 h, unit not given; relative to: vehicle (DMSO)): 0.69 ± 0.03
[Cl-].[Cl-].[Ru+2].c1ccc(-c2ccccn2)nc1.c1ccc(-c2ccccn2)nc1.c1cnc2c(c1)ccc1cccnc12  IC50 (B16-F10; dark): > 100 µM
O=C1OCC2=C1C(c1ccccc1[N+](=O)[O-])C1=C(N2)C(=O)c2ccccc2C1=O (stereo not drawn)  IC50 (HEK293 cells; cell growth): 4.78 ± 0.14 µM
COc1ccc(S(=O)(=O)N(C)C)cc1N1CCN(C(=O)c2ccc(F)cc2C(F)(F)F)CC1  neuroprotective concentration (dopamine neurons; together with: MPP+): 1 µM
CC(=O)O[C@H]1C2=C(C(=O)C(O)=C(C(C)C)C2=O)[C@@]2(C)CCCC(C)(C)[C@@H]2[C@@H]1O  GI50 (MCF7): 6.4 ± 0.4 µM
CNCCCOc1cc(F)c(-c2c(Cl)nc3ncnn3c2N[C@@H](C)C(F)(F)F)c(F)c1  total α-tubulin level (HEK293; 1 µM, 4 h, unit not given; relative to: vehicle (DMSO)): 0.49 ± 0.05
Cc1ccc2c(n1)c1nc(C)ccc1c1nc3cc4ccccc4cc3nc21.[Ru+2].c1ccc(-c2cccc(-c3ccccn3)n2)nc1.c1ccncc1  EC50 (MDA-MB-231; cell viability; light irradiation): 4.6 µM
C[C@H](Nc1c(-c2c(F)cc(OCCCN)cc2F)c(Cl)nc2ncnn12)C(F)(F)F  total α-tubulin level (HEK293; 1 µM, 4 h, unit not given; relative to: vehicle (DMSO)): 0.42 ± 0.02
CC1=C(C)C(=O)OC(C(C)(O)C2CCC3C4CC5OC56C(O)C=CC(=O)C6(C)C4CC(O)C32C)C1 (stereo not drawn)  IC50 (K-562R; cell growth): 1.54 µM

For quick reference, copied from above:
C[C@@H](Nc1c(-c2c(F)cc(C#CCCN)cc2F)c(Cl)nc2ncnn12)C(C)(C)C  acetylated α-tubulin level (HEK293; 10 µM, 4 h, unit not given; relative to: vehicle (DMSO)): 3.66 ± 0.58
Oc1cccc(-c2cccc(O)n2)n1.[Cl-].[Cl-].[Ru+2].c1cnc2c(c1)ccc1cccnc12.c1cnc2c(c1)ccc1cccnc12  phototoxicity index (HeLa; relative to: dark IC50 over light IC50): 3.8
O=C1c2ccccc2-c2c1c1ccc([N+](=O)[O-])cc1c(=O)n2C[C@H](O)CO  mean GI50 (60 human cancer cell lines; cell growth): 0.156 ± 0.061 µM
